Measured values from different studies.
Every numbered part comes from another study and shows a few of its results, in no order.
Sequence of UniProt P21860 (whole entry, looked up): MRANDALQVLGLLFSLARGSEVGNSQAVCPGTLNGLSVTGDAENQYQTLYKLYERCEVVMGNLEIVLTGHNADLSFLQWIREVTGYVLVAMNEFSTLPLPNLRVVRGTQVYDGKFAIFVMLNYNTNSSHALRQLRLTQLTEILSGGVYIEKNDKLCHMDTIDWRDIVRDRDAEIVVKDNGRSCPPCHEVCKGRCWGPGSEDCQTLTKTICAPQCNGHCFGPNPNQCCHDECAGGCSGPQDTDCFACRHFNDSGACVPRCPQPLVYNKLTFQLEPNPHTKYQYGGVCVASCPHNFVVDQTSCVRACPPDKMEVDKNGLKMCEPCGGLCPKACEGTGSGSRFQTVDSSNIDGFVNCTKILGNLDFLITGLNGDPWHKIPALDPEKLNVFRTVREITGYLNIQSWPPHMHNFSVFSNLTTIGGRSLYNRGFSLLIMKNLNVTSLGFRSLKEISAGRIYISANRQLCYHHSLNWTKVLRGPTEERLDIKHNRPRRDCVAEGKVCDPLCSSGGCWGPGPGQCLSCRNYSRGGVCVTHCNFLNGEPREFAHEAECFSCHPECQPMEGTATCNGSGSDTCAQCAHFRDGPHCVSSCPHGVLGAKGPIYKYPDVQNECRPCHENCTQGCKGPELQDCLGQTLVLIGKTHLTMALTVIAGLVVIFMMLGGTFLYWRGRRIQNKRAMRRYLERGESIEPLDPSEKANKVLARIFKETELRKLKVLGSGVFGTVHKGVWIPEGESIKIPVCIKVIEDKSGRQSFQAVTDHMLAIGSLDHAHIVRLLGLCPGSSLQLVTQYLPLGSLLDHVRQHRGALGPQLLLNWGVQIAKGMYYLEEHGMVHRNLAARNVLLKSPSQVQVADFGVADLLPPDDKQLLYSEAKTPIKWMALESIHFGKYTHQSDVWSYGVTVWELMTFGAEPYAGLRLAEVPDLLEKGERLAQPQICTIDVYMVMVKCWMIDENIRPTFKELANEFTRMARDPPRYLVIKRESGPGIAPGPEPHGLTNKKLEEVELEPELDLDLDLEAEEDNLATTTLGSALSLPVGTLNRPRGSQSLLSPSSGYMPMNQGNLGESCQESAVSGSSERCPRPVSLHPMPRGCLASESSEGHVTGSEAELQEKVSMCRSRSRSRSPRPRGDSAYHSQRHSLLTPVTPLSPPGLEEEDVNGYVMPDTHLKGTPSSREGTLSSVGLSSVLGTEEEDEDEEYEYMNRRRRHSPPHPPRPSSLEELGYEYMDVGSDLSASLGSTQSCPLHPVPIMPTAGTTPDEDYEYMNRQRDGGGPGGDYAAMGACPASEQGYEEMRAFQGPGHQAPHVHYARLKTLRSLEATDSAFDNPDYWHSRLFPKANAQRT
Sequence of UniProt Q8N5S9 (whole entry, looked up): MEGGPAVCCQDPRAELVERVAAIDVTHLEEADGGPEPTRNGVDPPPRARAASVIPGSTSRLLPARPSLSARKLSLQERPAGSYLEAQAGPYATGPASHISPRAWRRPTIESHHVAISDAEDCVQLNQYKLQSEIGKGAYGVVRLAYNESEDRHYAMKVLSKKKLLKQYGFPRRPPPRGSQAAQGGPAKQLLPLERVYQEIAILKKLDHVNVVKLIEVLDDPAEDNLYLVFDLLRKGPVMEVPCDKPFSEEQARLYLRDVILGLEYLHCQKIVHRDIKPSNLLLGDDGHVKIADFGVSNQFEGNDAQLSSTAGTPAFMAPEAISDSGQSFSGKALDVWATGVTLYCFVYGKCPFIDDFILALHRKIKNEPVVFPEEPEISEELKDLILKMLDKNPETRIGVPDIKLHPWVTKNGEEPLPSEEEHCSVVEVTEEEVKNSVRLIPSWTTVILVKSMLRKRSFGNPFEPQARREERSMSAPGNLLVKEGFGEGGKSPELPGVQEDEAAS
Sequence of UniProt O94768 (whole entry, looked up): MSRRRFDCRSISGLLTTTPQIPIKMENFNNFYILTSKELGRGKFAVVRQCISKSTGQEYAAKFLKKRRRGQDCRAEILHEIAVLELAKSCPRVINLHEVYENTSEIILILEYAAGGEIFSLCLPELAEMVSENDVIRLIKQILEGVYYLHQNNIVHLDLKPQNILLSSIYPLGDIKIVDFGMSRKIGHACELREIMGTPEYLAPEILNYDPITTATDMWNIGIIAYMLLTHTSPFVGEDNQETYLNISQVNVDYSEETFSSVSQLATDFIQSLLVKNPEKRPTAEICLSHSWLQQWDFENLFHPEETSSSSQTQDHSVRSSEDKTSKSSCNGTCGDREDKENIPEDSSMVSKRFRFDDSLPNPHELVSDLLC
Sequence of UniProt P29597 (whole entry, looked up): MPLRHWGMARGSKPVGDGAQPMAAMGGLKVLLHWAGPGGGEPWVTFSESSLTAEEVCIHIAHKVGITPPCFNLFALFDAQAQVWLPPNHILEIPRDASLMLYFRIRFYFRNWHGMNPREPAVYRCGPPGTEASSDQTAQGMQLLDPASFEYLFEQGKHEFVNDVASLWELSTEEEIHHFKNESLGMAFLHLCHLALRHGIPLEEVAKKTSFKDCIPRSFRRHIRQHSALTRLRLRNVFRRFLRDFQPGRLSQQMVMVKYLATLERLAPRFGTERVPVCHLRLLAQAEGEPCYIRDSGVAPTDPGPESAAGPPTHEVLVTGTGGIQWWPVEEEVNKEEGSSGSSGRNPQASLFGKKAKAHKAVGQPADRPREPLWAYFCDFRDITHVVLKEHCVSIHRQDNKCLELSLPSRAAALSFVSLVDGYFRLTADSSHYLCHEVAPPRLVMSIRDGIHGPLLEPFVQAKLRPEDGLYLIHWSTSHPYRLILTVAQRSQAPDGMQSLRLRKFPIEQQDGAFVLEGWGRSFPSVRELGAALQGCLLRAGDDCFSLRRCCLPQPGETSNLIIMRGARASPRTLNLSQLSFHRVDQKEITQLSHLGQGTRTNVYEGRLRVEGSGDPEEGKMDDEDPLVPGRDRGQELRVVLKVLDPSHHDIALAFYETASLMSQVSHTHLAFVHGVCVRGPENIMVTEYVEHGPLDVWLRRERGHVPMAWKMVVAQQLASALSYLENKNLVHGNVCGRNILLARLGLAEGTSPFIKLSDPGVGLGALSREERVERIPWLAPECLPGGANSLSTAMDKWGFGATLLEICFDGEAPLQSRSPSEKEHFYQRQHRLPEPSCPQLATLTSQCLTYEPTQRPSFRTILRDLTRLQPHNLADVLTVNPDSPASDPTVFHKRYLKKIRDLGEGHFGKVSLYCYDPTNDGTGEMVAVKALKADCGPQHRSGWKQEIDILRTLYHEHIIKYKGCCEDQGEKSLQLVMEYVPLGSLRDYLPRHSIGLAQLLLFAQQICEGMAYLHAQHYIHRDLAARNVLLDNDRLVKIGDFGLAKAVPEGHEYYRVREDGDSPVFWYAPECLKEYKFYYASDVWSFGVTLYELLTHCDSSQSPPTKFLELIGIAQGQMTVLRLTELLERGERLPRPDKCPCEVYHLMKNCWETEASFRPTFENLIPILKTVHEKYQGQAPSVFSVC
Sequence of UniProt P23458 (whole entry, looked up): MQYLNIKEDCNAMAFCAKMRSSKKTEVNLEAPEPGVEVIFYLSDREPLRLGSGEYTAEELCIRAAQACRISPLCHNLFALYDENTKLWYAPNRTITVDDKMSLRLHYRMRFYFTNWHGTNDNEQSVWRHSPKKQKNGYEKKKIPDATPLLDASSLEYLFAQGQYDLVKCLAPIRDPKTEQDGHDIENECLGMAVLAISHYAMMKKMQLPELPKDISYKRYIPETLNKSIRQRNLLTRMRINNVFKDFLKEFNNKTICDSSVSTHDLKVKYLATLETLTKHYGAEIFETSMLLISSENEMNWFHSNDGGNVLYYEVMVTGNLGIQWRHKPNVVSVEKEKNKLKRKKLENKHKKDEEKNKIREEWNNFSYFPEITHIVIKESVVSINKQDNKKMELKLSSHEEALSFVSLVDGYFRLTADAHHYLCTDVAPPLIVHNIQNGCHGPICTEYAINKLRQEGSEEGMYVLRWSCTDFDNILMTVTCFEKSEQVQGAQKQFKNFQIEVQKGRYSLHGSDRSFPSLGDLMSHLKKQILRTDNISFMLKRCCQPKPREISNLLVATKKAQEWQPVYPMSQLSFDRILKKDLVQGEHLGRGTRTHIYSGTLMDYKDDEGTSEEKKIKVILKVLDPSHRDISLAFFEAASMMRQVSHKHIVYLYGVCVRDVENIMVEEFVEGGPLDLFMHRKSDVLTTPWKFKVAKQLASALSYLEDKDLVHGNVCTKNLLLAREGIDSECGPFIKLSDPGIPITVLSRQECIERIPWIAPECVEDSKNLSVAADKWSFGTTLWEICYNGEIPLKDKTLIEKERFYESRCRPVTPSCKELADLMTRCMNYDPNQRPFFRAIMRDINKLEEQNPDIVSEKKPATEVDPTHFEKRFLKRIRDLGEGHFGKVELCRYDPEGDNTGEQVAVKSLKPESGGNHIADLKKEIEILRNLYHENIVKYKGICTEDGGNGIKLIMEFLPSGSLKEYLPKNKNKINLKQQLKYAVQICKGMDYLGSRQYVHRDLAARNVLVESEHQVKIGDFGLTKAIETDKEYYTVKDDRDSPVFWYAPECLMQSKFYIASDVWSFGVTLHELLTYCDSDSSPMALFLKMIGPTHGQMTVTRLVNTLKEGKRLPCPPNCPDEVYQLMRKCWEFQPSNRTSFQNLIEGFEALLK

Study 1
Species: human
Medium: microsomes or S9
Tested at: 2 µM
Time: 0.5 h
Compound	remaining compound [%]
CN1C(=O)c2[nH]nc(-c3ccccc3)c2C1c1ccco1 (stereo not drawn)	61.7
c1ccc(-c2ccc(-c3cn4c5ccccc5nc4n3CCN3CCCCC3)cc2)cc1	28.8
Cc1ccccc1-c1nc2ccccc2cc1Cn1nc(N2CCC(O)CC2)c2c(N)ncnc21	54.3
O=C(NCc1ccc(F)cc1)N1Cc2c(sc3c2CCCC3)-n2cccc2C1c1cccs1 (stereo not drawn)	8.43
COc1ccc2[nH]cc(CCn3c(N)cc(=O)[nH]c3=O)c2c1	75.1

Study 2
Target: Mitogen-activated protein kinase kinase kinase 2 (MAP3K2, Homo sapiens, UniProt Q9Y2U5)
Observed: enzyme activity
Action: inhibitor
Tested at: 0.5 µM
Baseline: control
Target sequence (Q9Y2U5 1-619): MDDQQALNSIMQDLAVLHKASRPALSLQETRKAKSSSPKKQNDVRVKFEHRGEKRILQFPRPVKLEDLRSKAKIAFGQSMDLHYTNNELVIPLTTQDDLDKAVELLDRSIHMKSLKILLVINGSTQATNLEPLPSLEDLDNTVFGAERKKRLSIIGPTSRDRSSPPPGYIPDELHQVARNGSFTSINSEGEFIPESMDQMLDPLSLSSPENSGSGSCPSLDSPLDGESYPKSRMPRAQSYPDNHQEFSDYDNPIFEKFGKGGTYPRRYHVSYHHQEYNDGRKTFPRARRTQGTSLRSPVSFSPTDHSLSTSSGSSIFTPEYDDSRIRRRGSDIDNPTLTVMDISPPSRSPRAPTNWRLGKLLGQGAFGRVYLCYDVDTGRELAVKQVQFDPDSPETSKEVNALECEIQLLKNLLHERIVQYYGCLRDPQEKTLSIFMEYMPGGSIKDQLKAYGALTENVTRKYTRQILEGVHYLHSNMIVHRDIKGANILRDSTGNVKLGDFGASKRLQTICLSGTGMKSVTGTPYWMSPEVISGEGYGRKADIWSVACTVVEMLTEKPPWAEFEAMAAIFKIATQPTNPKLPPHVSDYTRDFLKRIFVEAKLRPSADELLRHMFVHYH
SMILES	remaining activity
COc1cc2ncnc(Nc3ccc(F)c(Cl)c3)c2cc1OCCCN1CCOCC1	109%
CO[C@H]1C[C@@H]2CC[C@@H](C)[C@@](O)(O2)C(=O)C(=O)N2CCCC[C@H]2C(=O)O[C@H]([C@H](C)C[C@@H]2CC[C@@H](O)[C@H](OC)C2)CC(=O)[C@H](C)/C=C(\C)[C@@H](O)[C@@H](OC)C(=O)[C@H](C)C[C@H](C)/C=C/C=C/C=C/1C	94.8%
Nc1[nH]nc2nc3ccccc3nc12	92.6%
CC(C)[C@H](CO)Nc1nc(Nc2cc(N)cc(Cl)c2)c2ncn(C(C)C)c2n1	83.1%
Cc1ccc(Nc2nccc(N(C)c3ccc4c(C)n(C)nc4c3)n2)cc1S(N)(=O)=O	110%
Cn1c2ccccc2c2c3c(c4c5ccccc5n(CCC#N)c4c21)CNC3=O	2.96%
Cc1nc(-c2ccccc2)c(-c2ccncc2)o1	102%
CCOC(=O)c1c(C)[nH]c(/C=C2\C(=O)Nc3ccccc32)c1C	108%
O=C(Nc1cccc(Nc2cc(Nc3cccc(C(F)(F)F)c3)ncn2)c1)C1CC1	91.8%
Cc1cccc(-c2[nH]c(C(C)(C)C)nc2-c2ccc3c(c2)OCO3)n1	99.9%
CN(C)c1ccc(C=C2C(=O)Nc3ccccc32)cc1	99.8%
Cn1sc(=O)n(Cc2ccccc2)c1=O	94.7%
COc1ccc(CNC(=O)Nc2ncc([N+](=O)[O-])s2)cc1	94.1%
Nc1ccc2ncnc(NCCc3ccc(Oc4ccccc4)cc3)c2c1	98.4%
CNC(=O)c1cc(Oc2ccc(NC(=O)Nc3ccc(Cl)c(C(F)(F)F)c3)cc2)ccn1	109%
Cc1ccc(NC(=O)c2ccc(CN3CCN(C)CC3)cc2)cc1Nc1nc(-c2cccnc2)cs1	102%

Study 3
SMILES: CS(=O)(=O)N1CCCC(NC(=O)[C@H](CCC2CCCCC2)NC(=O)c2ccc(CNc3ncnc4c3nnn4-c3ccccc3)cc2)C1 (stereo partly drawn)
Observed: cell-free assay
Method: competition with immobilised ligand
Tested at: 0.1 µM
target	remaining binding [%]
CAMKK1 (Homo sapiens, UniProt Q8N5S9)	88
Tyrosine-protein kinase JAK1, JH1 (JAK1, Homo sapiens, UniProt P23458)	100
Non-receptor tyrosine-protein kinase TYK2, JH2 (TYK2, Homo sapiens, UniProt P29597)	100
ERBB3 (Homo sapiens, UniProt P21860)	100
STK17B (Homo sapiens, UniProt O94768)	100

Study 4
Cell line: 451Lu
SMILES	IC50
CNCCCC1c2ccccc2C=Cc2ccccc21	50.8 µM
c1cc(CN2CCCCC2)cc(OCCCNc2nc3ccccc3s2)c1	50.1 µM
CC(C)c1ccc2c(c1)CC[C@H]1[C@](C)(CN)CCC[C@]21C	6.5 µM
CN(C)CCCN1c2ccccc2Sc2ccc(C(F)(F)F)cc21	37.4 µM
CC(CN1c2ccccc2Sc2ccccc21)N(C)C (stereo not drawn)	57.9 µM

Study 5
Cell line: mouse MPNST tumor cells
Method: high-content nuclear imaging
Refers to: cell number
Tested at: 10 µM
Time: 12 h
Notes: mean of 2 replicates
Baseline: plate mean
Reading: higher = more cells
SMILES	nuclei count [z-score]
CC(C)(C)Nc1nc(Nc2ccc(C(N)=O)cc2)cc(N)c1C#N	1.69
c1ccc(-c2cnn3cc(-c4ccc(OCCN5CCOCC5)cc4)cnc23)cc1	3.67
Cc1cc(CC(=O)O)n(C)c1C(=O)c1ccc(Cl)cc1	0.847
CCN(c1nc(N)c(C(=O)N=C(N)N)nc1Cl)C(C)C	2.9
S=P(N1CC1)(N1CC1)N1CC1	-0.107

For quick reference, copied from above (study 1):
Compound	remaining compound [%]
CN1C(=O)c2[nH]nc(-c3ccccc3)c2C1c1ccco1 (stereo not drawn)	61.7
c1ccc(-c2ccc(-c3cn4c5ccccc5nc4n3CCN3CCCCC3)cc2)cc1	28.8
